Results of several laboratories.
A part holds a random share of what one study measured. Positions count from the first letter of the parent shown.

Series 1 — technique: RNA Bind-n-Seq; molecule type: RNA; sample: in vitro; tested at: 365 nM; baseline: no-protein control; reading: higher = stronger binding
Target: RNA binding protein fox-1 homolog 2, RRM domain, GST-SBP tag (RBFOX2, Homo sapiens, UniProt O43251-10, residues 100-194)
Notes: natural RNA segment, single round, ends assumed
All sequences stand within: GGGAGUUCUACAGUCCGACGAUC … UGGAAUUCUCGGGUGCCAA
Target sequence (chain): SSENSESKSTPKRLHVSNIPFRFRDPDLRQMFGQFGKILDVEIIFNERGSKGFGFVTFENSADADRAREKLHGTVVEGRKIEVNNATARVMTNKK
| Oligonucleotide | RBNS enrichment (R) |
| --- | --- |
| UGGCUUCUGAAGUGGUCAGGGCCAUGGCUGACACCUCCAGGUCCGCCUGGCAUGGGACACCAAGUGGAAGGCCCAAGCAGCUCAUCUGCUCUUGGGACCAGGGGCCAGUU | 0.423 |
| GUUUGGAGUGGCAGAGGCCAUACUUUCUUUGCCUCAGCUUCUCUCCUUCCUGCUGCCCUAUCCUCUGCCUUAGAAGAAAUGGGAACAGCUUGUAGGGAAGGGACAAGCUG | 0.252 |
| UCCUGCUUAAAACUAUGGAAAACCUAACCUGAUUAGAGCCUUGACUAUUUUGAAGAUUAAAUGCACACUUUUUAUAUAAUGUGACCAGUUUAAAUGUAGUUUGUAUUGUA | 2.66 |
| GUCGAUCUUUGAUAGUAUGUUCUGGAGUCUACUCCCCAGGAGCCAGGACAGGCGUGAAGAUGGAGUCCUUGUCGCAGCUGGAGCCUUGCCUAGCUGGUGAUCACACAGCC | 0.363 |
| ACCCCAUGAAGGGACCGCCCCCUCCCAAGGAUGGUCCCUUUGGGUGCAGCAGCAGAGGUCACCUCCUGACAUGCGCUCUGGGAAAGGUGGCAGAGGGCAGGACACCAUGA | 0.289 |
| GUAGCUCCCAUAAUUGUGGGAGGGACCUGGUGGGAGAUAAUUGAAUCAUAGGGGCAGUUUCUCCCAUACUGUUCUGGUGGUAGUGAAUAAGUCUCACGAGAUCUGAUGGU | 0.71 |
| AUUUGGUGGGUAGAAAUACAGUCAGGUGGUUAUAGAGCACAUACCUAGCAUAUGUGAAGCCAUGGGUUCUAUUCUCAGAACUGAAAAAAAAAAAAAUUCCAUCCUCGUAU | 0.504 |
| GUGGAUUCUAGCAAAAGAGCUGGAAAAAAGUCAGACUCUCCACAGACCCCCUAUGGGGGACCCCCAACUCAAGGCCAAGGACUGGGCGUAUCGGAUGCUCAUAACACCCC | 0.717 |
| UGGGUCCCUUGUACAUAACUCCUUGUGACAAAACCCUCUGGAAGUUCUGGACCCCAUUUUUGAUAGGCUUUUUUGUCUUGUCCUCUACUCAUGCUGUCUUGGACUCACUG | 0.667 |
| GGCAGCUGUGAGAACCCGGCUCGUUCCGACCUGCGGAUAGUCAAGCGAUCAGAGUAUGUCUUGUGUGUGAGAGUGAGCCUUACAAUCAUGUCCACUGAAGCCACUGGCAG | 0.868 |
| GAGGUCUUUUAAUCUGAUGUUCUCAGAAGGGGGUGGAUUUAAAUCCUGAAAUAAAUAUUUCAACACAGAACACAGGCCUGAUUCUGCCUUGGACAUGUCAAAAUCUGGGG | 0.619 |
| UAGCCCUAAAAUGACAAGCCUUCUUAAAGCCUUAUUUUUCAAAAGCGCCCCCCCCAUUCUUGUUCAGAUUAAGAGUUGCCAAAAUACCUUCUGAACUACACUGCAUUGUU | 0.943 |

Series 2 — technique: DHFR PCA, deep sequencing; sample: yeast; with: (+)-ABA 0.032 µM; baseline: wild-type fitted maximum; reading: higher = stronger binding
Target: ABI1, truncated, D143A, DHFR fusion (Arabidopsis thaliana)
Notes: methotrexate growth selection, single substitutions
Parent: PYL1, truncated, DHFR fusion (Arabidopsis thaliana); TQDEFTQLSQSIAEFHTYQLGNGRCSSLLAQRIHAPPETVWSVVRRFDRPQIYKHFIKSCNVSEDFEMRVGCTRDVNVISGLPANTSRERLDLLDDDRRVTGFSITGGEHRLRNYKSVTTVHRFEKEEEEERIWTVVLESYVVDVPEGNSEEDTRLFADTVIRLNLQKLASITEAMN; partner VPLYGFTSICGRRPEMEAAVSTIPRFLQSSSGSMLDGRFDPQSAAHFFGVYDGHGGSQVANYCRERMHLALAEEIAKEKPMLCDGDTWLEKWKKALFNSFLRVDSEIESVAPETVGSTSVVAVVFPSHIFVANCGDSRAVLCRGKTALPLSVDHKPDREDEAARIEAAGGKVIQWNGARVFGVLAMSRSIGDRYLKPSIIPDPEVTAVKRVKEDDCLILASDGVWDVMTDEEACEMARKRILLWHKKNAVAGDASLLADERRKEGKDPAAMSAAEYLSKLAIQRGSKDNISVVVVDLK
| Variant | relative binding score [%] |
| --- | --- |
| Y115R | -0.279 |
| L138D | 2.42 |
| R32K | 27.9 |
| E131D | 45.3 |
| F5S | 3.53 |
| T106E | 13.2 |
| F103S | -1.98 |
| F15H | 13.5 |
| E67T | 21.1 |
| T173W | -5.98 |
| F103W | -2.76 |

Series 3 — target: ATF1, bZIP domain (human); technique: DHFR protein complementation; sample: yeast; baseline: wild-type JUN-FOS pair; reading: higher = stronger binding
Notes: single substitutions, most at no-binding floor
Parent: JUN, bZIP domain (human); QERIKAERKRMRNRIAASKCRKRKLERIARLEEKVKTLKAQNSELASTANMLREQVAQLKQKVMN; partner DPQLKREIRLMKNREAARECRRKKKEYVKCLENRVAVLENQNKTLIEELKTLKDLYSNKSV
| Variant | binding fitness [natural log] |
| --- | --- |
| A49R | -1.52 |
| K36D | -1.32 |
| L45I | -1.5 |
| A46Y | -1.56 |
| T37Q | -1.24 |
| Q55R | -1.46 |
| M51N | -1.46 |
| L45K | -1.69 |
| A46C | -1.46 |
| L52F | -1.5 |
| A29S | -1.53 |
| V56S | -1.53 |
| K39H | -1.49 |

Series 4 — technique: protein binding microarray; molecule type: double-stranded DNA, one strand shown; sample: in vitro; tested at: not given; baseline: not given; reading: higher = stronger binding
Target: Histone acetyltransferase KAT6A, winged helix 2, GST fusion (KAT6A, Homo sapiens, UniProt Q92794, residues 85-181)
Notes: 8-mer, flanks averaged, mean of 2 arrays, mostly near background
Target sequence (chain): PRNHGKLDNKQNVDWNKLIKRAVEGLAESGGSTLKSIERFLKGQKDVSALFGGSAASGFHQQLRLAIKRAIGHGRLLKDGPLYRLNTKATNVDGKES
| Oligonucleotide | E-score |
| --- | --- |
| ATGAAATG | -0.0161 |
| ATAGTGCC | -0.0566 |
| AGTACTTG | 0.0181 |
| AACTGAAT | -0.273 |
| CGGACCGC | 0.0931 |
| ATGCCGCA | 0.109 |
| ACGCGGGA | 0.151 |
| ATGATAAG | -0.0794 |
| CGGATTTA | 0.0251 |
| ACTCCTGG | -0.134 |
| AATCGCGT | -0.0447 |
| CAGTGATA | -0.0282 |
| ATCCCCGA | 0.0349 |
| CCTACGGC | 0.0131 |
| AGATTTAA | 0.12 |
| GAGTGTTA | 0.0332 |
| ACTTACAG | -0.149 |
| CTTTGGGC | 0.139 |
| AGACCGGC | -0.049 |
| GGATTCCC | 0.00105 |
| AGACGCCC | 0.0988 |
| ATGAGTAA | -0.0423 |
| ATTCTATG | -0.0205 |
| ACTGGTAC | -0.143 |
| CCATCAGG | -0.0324 |

Series 5 — technique: universal PBM; molecule type: double-stranded DNA, one strand shown; sample: in vitro; tested at: not given; reading: higher = stronger binding
Target: Sal-like protein 4, full length isoform B (SALL4, Homo sapiens, UniProt Q9UJQ4-2, residues 1-616)
Notes: 8-mer, flanks averaged, mean of replicates
Target sequence (chain): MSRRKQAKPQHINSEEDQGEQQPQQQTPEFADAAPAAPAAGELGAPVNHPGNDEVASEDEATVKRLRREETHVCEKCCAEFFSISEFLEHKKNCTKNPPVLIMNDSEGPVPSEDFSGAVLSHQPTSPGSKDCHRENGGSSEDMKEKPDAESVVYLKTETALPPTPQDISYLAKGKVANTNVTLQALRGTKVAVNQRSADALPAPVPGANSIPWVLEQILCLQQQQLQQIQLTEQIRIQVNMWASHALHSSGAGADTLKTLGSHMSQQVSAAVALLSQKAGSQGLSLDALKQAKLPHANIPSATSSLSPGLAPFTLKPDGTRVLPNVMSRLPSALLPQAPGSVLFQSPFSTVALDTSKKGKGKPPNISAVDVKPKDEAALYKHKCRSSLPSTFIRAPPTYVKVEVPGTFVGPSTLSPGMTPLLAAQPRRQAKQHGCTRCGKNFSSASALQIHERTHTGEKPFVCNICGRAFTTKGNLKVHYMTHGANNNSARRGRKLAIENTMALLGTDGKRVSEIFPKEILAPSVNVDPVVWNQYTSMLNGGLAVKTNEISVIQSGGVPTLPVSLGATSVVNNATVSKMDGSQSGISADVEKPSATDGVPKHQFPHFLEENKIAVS
| Oligonucleotide | E-score |
| --- | --- |
| TACGAGGA | -0.0564 |
| AGCGGAGC | -0.285 |
| CTAGGAAG | -0.0845 |
| ATAGCGCA | 0.192 |
| GTTTGATA | 0.213 |
| ATAGCCGC | -0.222 |
| CTTTATGC | 0.125 |
| AGCACCGC | -0.334 |
| AGCAGCTG | -0.00542 |
| CAGATAAG | 0.0543 |
| ACTTCCAG | -0.0331 |
| GGGACTAA | -0.00298 |
| AGATGTCA | 0.0384 |
| CACCTCAA | -0.11 |
| CTTCTCCA | -0.179 |
| AACCCTTC | 0.0983 |
| CAGTTAGG | -0.0671 |
| GCCGGAGA | -0.21 |
| CCCGCCCA | -0.155 |
| CTGTGACA | -0.0977 |
| CGAGTAAA | 0.0687 |

Series 6 — target: CCND1, cyclin fold, Cln2 fusion (human); technique: yeast growth competition, sequencing; sample: yeast; notes: weak parent motif; baseline: not given; reading: higher = stronger binding
Parent: CDC6 docking peptide (human); TLKGRRLVFDNQL
| Variant | normalised enrichment score |
| --- | --- |
| K3M | -0.0153 |
| N11H | 0.134 |
| L7W | 0.377 |
| K3Y | 0.566 |
| F9M | -0.207 |
| L2F | 0.452 |
| R5A | 0.653 |
| R5N | 0.793 |
| G4R | -0.0155 |

Series 7 — technique: competition protein-binding microarray; molecule type: double-stranded DNA, one strand shown; sample: in vitro; tested at: 2 µM; with: Cbf1 competitor, 0.05 µM; reading: higher = stronger binding; all sequences stand within: … GTCTTGATTCGCTTGACGCTGCTG
Target: Phosphate system positive regulatory protein PHO4, full length, GST-tagged (PHO4, Saccharomyces cerevisiae, UniProt P07270, residues 1-312)
Notes: whole 60-bp probe, lowest competitor level
Residues (chain): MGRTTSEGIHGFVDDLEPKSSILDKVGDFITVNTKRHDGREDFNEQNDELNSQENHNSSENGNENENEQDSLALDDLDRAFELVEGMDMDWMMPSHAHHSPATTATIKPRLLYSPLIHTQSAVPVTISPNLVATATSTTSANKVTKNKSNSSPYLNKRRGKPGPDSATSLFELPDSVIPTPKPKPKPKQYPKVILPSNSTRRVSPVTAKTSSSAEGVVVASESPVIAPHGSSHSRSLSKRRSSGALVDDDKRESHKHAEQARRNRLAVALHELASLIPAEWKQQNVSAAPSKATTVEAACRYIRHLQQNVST
| Oligonucleotide | fluorescence intensity |
| --- | --- |
| CGGTGGAGTATTTCACACGTTATGTCGCTGGTTTGC | 6310 a.u. |
| CGTCCTAGTGATTTTCACGTGATATCCATGAGGAAG | 13400 a.u. |
| TACTGCTCCAGGGGTGACTTGATGTCCTCTGCTGGG | 3210 a.u. |
| TGTGTTGGATCTCAACACGGGGTACCTCCGTATAAG | 9410 a.u. |
| ATGTCGAAGCCGGTGCAGGTGATAGTGCTGCTTACA | 4980 a.u. |
| CTAACGAAGGTTTGTCACGTGGGTGACAAGCCAAGT | 13900 a.u. |
| CTAACGAAGGTTTTTCACGTGTGCTACAAGCCAAGT | 11600 a.u. |
| ATACTGTTGTATTTCCGCGTGAAGCCACTTTTAACC | 5680 a.u. |
| TGCGCAACAACTTGTCACCAGACTTTATGTCTAGAA | 3100 a.u. |
| AAATTACTAAGTTGATCGGTGGGTGACGCCGTATGA | 3550 a.u. |
| TTGGGAAATATTCCTCACGTGGAATTTTTTGAGCGC | 12400 a.u. |
| CTACGCCGCTATTACTACGTGCTTTTTCTTTTGATT | 7580 a.u. |
